Experimental data from different studies.
Each line is one published result; not all experiments were run side by side.
Cell line: SW-620

The growth percent of COc1cc(CNC(=O)C[C@H](C)CCC=C(C)C)ccc1OCc1cn(-c2ccc([N+](=O)[O-])cc2)nn1 is reported as 86.8% (SRB; 10 µM, 48 h).
For CC/C=C\C/C=C\C/C=C\C/C=C\C/C=C\C/C=C\CCC(=O)Nc1ccn(C2OC(CO)C(O)C2(F)F)c(=O)n1 (stereo not drawn), the GI50 was 75.9 nM (cell growth or viability, SRB).
C1=[N+]2CCCC[N+]3=Cc4ccc5[n]4[Au-]23[n]2c1ccc2-c1nc2ccccc2nc1-5.F[P-](F)(F)(F)(F)F gave an IC50 of 1500 nM (cell growth).
With CC(Cc1ccc(Cl)cc1)=C(c1ccc(Cl)cc1)c1ccc(OCCN(C)C)cc1 the GI50 was 1670 nM (cell growth or viability, SRB).
For CCCCN(CCCC)CC(O)COc1c2ccoc2c(OC)c2oc(CC)cc(=O)c12 (stereo not drawn), “IL-6 secretion reduction” read about 50% (ELISA; IC50, 72 h; relative to: control).
For COc1cc(CNC(=O)C[C@H](C)CCC=C(C)C)ccc1OCc1cn(-c2ccc(Cl)c(Cl)c2)nn1, the growth percent was 29.9% (SRB; 10 µM, 48 h).
With COc1ccc2c(c1)/C(=N\Nc1nnc3n1N=C(c1ccccc1)CS3)C(=O)N2 the inhibition was 21% (cell growth or viability, SRB; 10 µM).
COc1cc(CNC(=O)C[C@H](C)CCC=C(C)C)ccc1OCc1cn(-c2ccc(Br)cc2)nn1 gave a growth percent of 91.7% (SRB; 10 µM, 48 h).
The GI50 of CCC(=C(c1ccc(Cl)cc1)c1ccc(OCCCN(C)C)cc1)c1ccc(OC)cc1 is reported as 1160 nM (cell growth or viability, SRB).

Some of these lines once more:
C1=[N+]2CCCC[N+]3=Cc4ccc5[n]4[Au-]23[n]2c1ccc2-c1nc2ccccc2nc1-5.F[P-](F)(F)(F)(F)F gave an IC50 of 1500 nM (cell growth).
